# Experimental data collected from several papers.
# Each line is one published result; not all experiments were run side by side. Several values in a cell are separate wells, animals, samples, runs or records. ± marks the error that the study gave.
# NT5E membrane-bound form: 5'-nucleotidase, membrane-bound form (NT5E, Homo sapiens, UniProt P21589)
# CSNK1E: Casein kinase I isoform epsilon (CSNK1E, Homo sapiens, UniProt P49674)
# HTR6: 5-hydroxytryptamine receptor 6 (HTR6, Homo sapiens, UniProt P50406)
# Scn3a: Sodium channel protein type 3 subunit alpha (Scn3a, Rattus norvegicus, UniProt P08104)
# ADORA2A: Adenosine receptor A2a (ADORA2A, Homo sapiens, UniProt P29274)
# SIRT5: NAD-dependent protein deacylase sirtuin-5, mitochondrial (SIRT5, Homo sapiens, UniProt Q9NXA8)
# MMP13: Collagenase 3 (MMP13, Homo sapiens, UniProt P45452)
Compound,target,test,system,conditions,inhibition
Cc1cc(C(F)(F)F)c2c(N)c(C(=O)Nc3ccccc3)sc2n1,NT5E membrane-bound form,"CD73 activity, inhibitor, malachite green phosphate",MDA-MB-231,"100 µM, added: 200 µM AMP",19 ± 5%
COC(=O)c1ccc(-c2nc(-c3cccc(C)c3)c(-c3ccncc3)[nH]2)cc1,CSNK1E,kinase activity,,1 µM,43%
Ic1cccc2cnccc12,central GABA-A receptor (rat),"agonist site binding, radioligand binding",,"10 µM, added: muscimol",8%
C=C(NC(=O)C(=C)NC(=O)c1csc(C2=N[C@@H]3c4csc(n4)[C@H]4NC(=O)c5csc(n5)[C@H]([C@](C)(O)[C@@H](C)O)NC(=O)[C@H]5CSC(=N5)/C(=C/C)NC(=O)[C@H]([C@@H](C)O)NC(=O)c5csc(n5)[C@]3(CC2)NC(=O)[C@H](C)NC(=O)C(=C)NC(=O)[C@H](C)NC(=O)[C@H]([C@@H](C)CC)N[C@@H]2C=Cc3c([C@H](C)O)cc(nc3[C@H]2O)C(=O)O[C@@H]4C)n1)C(N)=O,"Thioredoxin reductase 2, mitochondrial (Txnrd2, Mus musculus, UniProt Q9JLT4)",enzyme activity,,"50 µM, 1 h, pH 8.0, 37 °C",no inhibition
c1ccc(OC[C@@H]2CN(CCN3CCc4ccccc43)CCO2)cc1,HTR6,radioligand binding,,"concentration not given, added: [3H]LSD",24.2%
CCOC(=O)c1ccc(NC(=O)CSc2nc(C)cc(-c3ccccc3)c2C#N)cc1,NT5E membrane-bound form,"CD73 activity, inhibitor, malachite green phosphate",MDA-MB-231,"100 µM, added: 200 µM AMP",26 ± 6%
c1cc(N2CCN(CCCOc3ccc(CN4CCOCC4)cc3)CC2)c2ccsc2c1,HTR6,,,10 µM,91.3 ± 2.4%
CCCCc1[nH]c2nc(N)nn2c(=O)c1Cc1cccc(Cl)c1,"CCR5 (Homo sapiens, UniProt P51681)","β-arrestin recruitment, antagonist, Tango",U2OS,"1 µM, added: CCL3 at EC80",73%
Cc1cc(-c2ccccc2)nc(SCC(=O)Nc2cccnc2)c1C#N,NT5E membrane-bound form,"CD73 activity, inhibitor, malachite green phosphate",MDA-MB-231,"100 µM, added: 200 µM AMP",-72 ± 3%
Cn1cc(-c2cnc3ccc(NC(=O)Nc4ccc(F)c(Br)c4)cc3n2)cn1,"MAP3K3 (Homo sapiens, UniProt Q99759)","kinase binding, KiNativ profiling, item: Lys1 peptide",PANC-1 lysate,1.25 µM,11.7%
O=C(Nc1cccc2c(=O)cc(-c3nnn[nH]3)oc12)c1ccc(OCCCCc2ccccc2)cc1,"LRRC8A/LRRC8C (Homo sapiens, UniProt Q8IWT6+Q8TDW0, Y124F/Y126F)","ion current, whole-cell patch clamp",HCT LRRC8-/- cells,"0.3 µM, -100 mV, Y124F/Y126F heteromers",-8.96% and 5.22% and 26.9% and -8.53% and -12.8% and -10.2%
NC(=O)c1ccc(-c2nc(-c3ccc4c(c3)OCO4)c(-c3ccccn3)[nH]2)cc1,CSNK1E,inhibitor,,1 µM,56%
COc1ccccc1N1CCN(CCCCN2CCc3ccccc3C2=O)CC1,HTR6,radioligand binding,,"concentration not given, added: [3H]LSD",14.8%
O=C(NO)c1ccc(CN2CCCCc3ccccc32)c(F)c1,HTR6,"radioligand binding, radioligand displacement",,10 µM,16%
Cc1cccc(-c2nc(-c3ccc(NS(C)(=O)=O)cc3)[nH]c2-c2ccncc2)c1,CSNK1E,kinase activity,,1 µM,40%
COc1cc(-c2cc(C(C)=O)n3ccccc23)cc(OC)c1Cn1ccnc1,"CECR2 (Homo sapiens, UniProt Q9BXF3)",,,1 µM,96.9%
CN(C(=O)n1cnc(-c2ccc[n+]([O-])c2)c1)C1CCCCC1,"AGTR1 (Homo sapiens, UniProt P30556)",,,10 µM,2.6%
CC(C)c1noc2ncc(C(=O)c3ccccc3O)cc12,Scn3a,"ion current, inhibitor, whole-cell patch clamp",,10 µM,3.16% and 2.22% and 0.11% and 4.15% and 5.44%
CNc1cc(Oc2cc(C(=O)Nc3cc(N4CCN(C)CC4)cc(C(F)(F)F)c3)ccc2C)ncn1,"SLK (Homo sapiens, UniProt Q9H2G2)","probe labelling, KiNativ","Huh-7, live cells","1 µM, Lys1 site",-17.4%
Cc1ccc(C(=O)Nc2nc3ccccc3[nH]2)cc1C,ADORA2A,,,30 µM,16 ± 4%
O=C(Cn1nc(C(F)(F)F)c2c1CCCC2)NC1CCC1,"Inward rectifier potassium channel (Aedes aegypti, UniProt L0EQ40)","inward K+ current, two-electrode voltage clamp",Xenopus oocytes,"25 µM, pH 7.5, holding -140 mV, added: K+ 25 mM",~20%
Cc1ccc2nc(NC(=O)c3ccccc3)[nH]c2c1,ADORA2A,,,30 µM,17 ± 1%
COc1c(C#N)ccnc1N1C2CCC1CN(C(=O)c1cccnc1-n1cccn1)C2,α1,binding,,10 µM,-6.8%
Cc1ccc(C(=O)Nc2ccc3ccccc3c2)o1,Scn3a,"ion current, inhibitor, whole-cell patch clamp",,10 µM,6.8% and 4.7% and 3.7% and 4% and 8.7%
CCCCNC(=S)NCCCC[C@H](NS(=O)(=O)c1cccc(F)c1)C(=O)N[C@@H](Cc1c[nH]c2ccccc12)C(=O)NC1CCC1,SIRT5,"enzyme activity, inhibitor",,100 µM,< 0%
O=C1c2ccccc2CCCN1CCCCN1CCN(c2ccccn2)CC1,HTR6,radioligand binding,,"concentration not given, added: [3H]LSD",18.9%
CCOC(=O)c1ccc(NC(=O)CSc2nc(-c3ccccc3)cc(C(F)(F)F)c2C#N)cc1,NT5E membrane-bound form,"CD73 activity, inhibitor, malachite green phosphate",MDA-MB-231,"100 µM, added: 200 µM AMP",23 ± 5%
O=C(CN1CCO[C@@H](COc2ccccn2)C1)N1CCc2ccccc21,HTR6,radioligand binding,,"concentration not given, added: [3H]LSD",-19.2%
Cc1cc(C)c2c(N)c(C(=O)NCc3ccccc3)sc2n1,NT5E membrane-bound form,"CD73 activity, inhibitor, malachite green phosphate",MDA-MB-231,"100 µM, added: 200 µM AMP",5 ± 6%
CCN1/C(=C/C(C)=O)Sc2ccc(F)cc21,"OPRK1 (Homo sapiens, UniProt P41145)",,,10 µM,17.7%
Cc1cc(-c2ccccc2)nc2sc(C(=O)Nc3nccs3)c(N)c12,NT5E membrane-bound form,"CD73 activity, inhibitor, malachite green phosphate",MDA-MB-231,"100 µM, added: 200 µM AMP",8 ± 3%
O=C(C#Cc1cn(Cc2ccccc2)c(=O)[nH]c1=O)NCc1ccccc1,MMP13,,,6.5 µM,32 ± 9%
O=C1NC(=O)C2(N1)c1ccccc1-c1ccccc12,"GABA-A receptor alpha-1/beta-3 (GABRA1/GABRB3, Homo sapiens, UniProt P14867+P28472)",,,"concentration not given, α1β3 receptor",36%
CCCCNC(=S)NCCCC[C@H](NC(=O)CCC(=O)NCCOCCOCCCCCCCl)C(=O)N[C@@H](Cc1c[nH]c2ccccc12)C(=O)NC1CCC1,SIRT5,"enzyme activity, inhibitor",,100 µM,< 0%
Cc1cccc(-c2nc(-c3ccc(C#N)cc3)[nH]c2-c2ccncc2)c1,CSNK1E,kinase activity,,1 µM,36%
COc1cc(C(=O)NS(=O)(=O)c2ccccc2C)ccc1Cc1cn(C)c2ccc(NC(=O)OC3CCCC3)cc12,"Volume-regulated anion channel subunit LRRC8C, part LRRC8A IL1 chimera (LRRC8C, Homo sapiens, UniProt Q8TDW0, E6A)","ion current, inhibitor, whole-cell patch clamp",HCT LRRC8-/- cells,"30 µM, +100 mV",96.3% and 99.3% and 95.6% and 97.9% and 93.6% and 93.4%
O=C(CN1CCO[C@H](COc2cccc(Cl)c2)C1)N1CCc2ccccc21,HTR6,radioligand binding,,"concentration not given, added: [3H]LSD",17.3%
Nc1c(C(=O)Nc2cccnc2)sc2nc(-c3ccccc3)cc(C(F)(F)F)c12,NT5E membrane-bound form,"CD73 activity, inhibitor, malachite green phosphate",MDA-MB-231,"100 µM, added: 200 µM AMP",20 ± 3%
COc1cc(OS(C)(=O)=O)c2c(c1)[C@H]1O[C@@H]1C[C@H](OS(C)(=O)=O)[C@H](OS(C)(=O)=O)C(=O)/C=C/C[C@H](C)OC2=O,"Mitogen-activated protein kinase kinase kinase 7, with TAB1 (MAP3K7, Homo sapiens, UniProt O43318)","kinase activity, Kinase-Glo luminescence",,concentration not given,inactive
CCOC(=O)c1ccc(NC(=O)c2sc3nc(-c4ccccc4)cc(C(F)(F)F)c3c2N)cc1,NT5E membrane-bound form,"CD73 activity, inhibitor, malachite green phosphate",MDA-MB-231,"100 µM, added: 200 µM AMP",24 ± 1%
COc1ccc2c(c1)C(=O)N(CCCN1CCN(c3ccccc3OC)CC1)C2,HTR6,radioligand binding,,"concentration not given, added: [3H]LSD",-11.3%
CC[C@@H]1[C@H](F)C(=O)N[C@@H]1COc1nccc2cc(C(N)=O)c(OC)cc12,"ULK1 (Homo sapiens, UniProt O75385)","ATP-site probe binding, ActivX profiling",THP-1 cell lysate,"0.04 mM, Lys1 site",4.1%
COc1ccc(S(=O)(=O)N(CC(=O)NO)CC(C)C)cc1,MMP13,inhibitor,,0.1 µM,28.9 ± 0.305%
NC/C(=C\F)COc1cccc(Cn2c(=S)[nH]c(=O)c3[nH]cnc32)c1,"Amine oxidase copper-containing 3 (Canis lupus familiaris, UniProt A0A8I3MYY3)",inhibitor,dog adipose tissue,0.0041 µM,75%

# Some of these lines once more:
Compound,target,test,system,conditions,inhibition
COc1ccc(S(=O)(=O)N(CC(=O)NO)CC(C)C)cc1,MMP13,inhibitor,,0.1 µM,28.9 ± 0.305%
CCOC(=O)c1ccc(NC(=O)c2sc3nc(-c4ccccc4)cc(C(F)(F)F)c3c2N)cc1,NT5E membrane-bound form,"CD73 activity, inhibitor, malachite green phosphate",MDA-MB-231,"100 µM, added: 200 µM AMP",24 ± 1%
COc1ccc2c(c1)C(=O)N(CCCN1CCN(c3ccccc3OC)CC1)C2,HTR6,radioligand binding,,"concentration not given, added: [3H]LSD",-11.3%
CCOC(=O)c1ccc(NC(=O)CSc2nc(C)cc(-c3ccccc3)c2C#N)cc1,NT5E membrane-bound form,"CD73 activity, inhibitor, malachite green phosphate",MDA-MB-231,"100 µM, added: 200 µM AMP",26 ± 6%
COc1cc(-c2cc(C(C)=O)n3ccccc23)cc(OC)c1Cn1ccnc1,"CECR2 (Homo sapiens, UniProt Q9BXF3)",,,1 µM,96.9%
Cc1ccc2nc(NC(=O)c3ccccc3)[nH]c2c1,ADORA2A,,,30 µM,17 ± 1%
